Assay results from different studies.
Cell line: KM12

SMILES	assay	test system	conditions	how to read	endpoint	value
CCCN1CCN(c2ccc3[nH]c(-c4ccc5[nH]c(-c6cc(OC)c(OC)c(OC)c6)nc5c4)nc3c2)CC1	SRB		10 µM, 48 h		growth percent	77%
C#C[C@@]1(O)[C@@H](CO)O[C@@H](n2cc(Cl)c3c(N)ncnc32)[C@@H]1O	SRB		NCI-60 screen		TGI	> 100 µM
CCCN1CCN(c2ccc3nc(-c4ccc5nc(-c6cc(OC)ccc6OC)[nH]c5c4)[nH]c3c2)CC1	SRB		10 µM, 48 h		growth percent	32.2%
NNc1nc(-c2ccc(Cl)cc2)c2c(NC(=O)c3ccccc3)nnc-2[nH]1	SRB		10 µM, NCI60 single-dose screen, colon cancer	relative to: untreated	cell growth	100%
CCCN1CCN(c2ccc3[nH]c(-c4ccc5[nH]c(-c6ccc(C(F)(F)F)cc6)nc5c4)nc3c2)CC1	SRB		10 µM, 48 h		growth percent	-86.4%
Cn1cncc1C1=CN(c2ncnc3[nH]cnc23)CCS1			colon cancer		GI50	14.1 µM
O=C(Nc1nnc2n3c(nc(-c4ccc(Cl)cc4)c1-2)SCC3=O)c1ccccc1	SRB		10 µM, NCI60 single-dose screen, colon cancer	relative to: untreated	cell growth	99.3%
C#C[C@@]1(O)[C@@H](CO)O[C@@H](n2cc(I)c3c(N)ncnc32)[C@@H]1O	SRB		NCI-60 screen		TGI	> 100 µM
CCCCN1CCN(c2ccc3[nH]c(-c4ccc5[nH]c(-c6ccc(OCC)cc6)nc5c4)nc3c2)CC1	SRB		10 µM, 48 h		growth percent	49.1%
O=C1NCCc2[nH]c(-c3ccncc3)cc21	MTS	colon cancer			IC50	2.28 µM
COc1ccc(OC)c(-c2nc3ccc(-c4nc5ccc(N6CCN(C)CC6)cc5[nH]4)cc3[nH]2)c1	SRB		10 µM, 48 h		growth percent	105%
O=C(/C=C/C=C/C=C/C1CCCCC1)NC1=C[C@@](O)(/C=C/C=C/C=C/C(=O)NC2=C(O)CCC2=O)[C@@H]2O[C@@H]2C1=O	cell growth, CellTiter-Glo		78 h		GI50	22 µM
Cc1n[nH]c2nc(-c3ccc(Cl)cc3)c3c(NC(=O)c4ccccc4)nnc-3n12	SRB		10 µM, NCI60 single-dose screen, colon cancer	relative to: untreated	cell growth	105%
S=C([S][Au-][P+](CCCCCC[P+]([Au-][S]C(=S)n1cccn1)(c1ccccc1)c1ccccc1)(c1ccccc1)c1ccccc1)n1cccn1	cell growth, NCI-60 screen		colon cancer		log TGI	-5.76 log10 M
CSc1nc(-c2ccc(Cl)cc2)c2c(NC(=O)c3ccccc3)nnc-2[nH]1	SRB		10 µM, NCI60 single-dose screen, colon cancer	relative to: untreated	cell growth	100%
CCN(CC)c1ccc(C=NNC(=O)CSc2nc3ccccc3c(=O)n2Cc2ccc(S(N)(=O)=O)cc2)c(O)c1	NCI five-dose screen				TGI	> 100 µM

For quick reference, copied from above:
SMILES	assay	test system	conditions	how to read	endpoint	value
CSc1nc(-c2ccc(Cl)cc2)c2c(NC(=O)c3ccccc3)nnc-2[nH]1	SRB		10 µM, NCI60 single-dose screen, colon cancer	relative to: untreated	cell growth	100%
CCN(CC)c1ccc(C=NNC(=O)CSc2nc3ccccc3c(=O)n2Cc2ccc(S(N)(=O)=O)cc2)c(O)c1	NCI five-dose screen				TGI	> 100 µM
